# Experimental data collected from several papers.
# Numbered parts are unrelated; each lists some results of a single study. Substitutions count along the parent as printed.

# Series 1 — target: CCNB2, cyclin fold, Cln2 fusion (human); method: yeast growth competition, sequencing; medium: yeast; setting: weak parent motif; baseline: not given; reading: higher = stronger binding
# Starting sequence: RBL2 docking peptide (human); STTRRRLFVENDS; partner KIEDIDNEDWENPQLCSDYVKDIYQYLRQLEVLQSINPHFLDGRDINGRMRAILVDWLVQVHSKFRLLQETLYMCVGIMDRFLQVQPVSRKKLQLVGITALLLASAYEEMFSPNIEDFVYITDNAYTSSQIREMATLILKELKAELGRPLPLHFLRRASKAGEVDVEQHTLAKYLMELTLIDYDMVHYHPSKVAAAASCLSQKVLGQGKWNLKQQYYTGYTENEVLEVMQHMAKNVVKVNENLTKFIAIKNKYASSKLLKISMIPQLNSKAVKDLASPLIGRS
Change,normalised enrichment score
STTRRRLFVERDS [N11R],0.632
STTRRRLFDENDS [V9D],0.184
STTRRRLFVENGS [D12G],-0.129
STTRRRLCVENDS [F8C],0.332
PTTRRRLFVENDS [S1P],0.561
FTTRRRLFVENDS [S1F],-0.0326
STTRRRLKVENDS [F8K],0.366
STTRRRLFVQNDS [E10Q],0.5
STTRRRLFVNNDS [E10N],0.531

# Series 2 — method: protein-binding microarray; form: double-stranded DNA, one strand shown; medium: in vitro; tested at: 250 nM; setting: 60-bp whole probe; together with: salmon DNA 0.4 mg/ml; baseline: random background probes; reading: higher = stronger binding; shared flanks, not repeated: GCCTAGCAC … GTCTTGATTCGCTTGACGCTGCTG
# Target: Interferon regulatory factor 5, full length, phosphomimetic (IRF5, Homo sapiens, UniProt Q13568-2, residues 1-514, K96S/S451D/S453D/S456D/S462D)
Strand,log fluorescence
TCAATTTTCCCTCCCTAACTGTGCTAG,0.885 z-score
TTAGCTATCGGTATCGGTTAGTGCTAG,9.95 z-score
TTAGGAATGGGTTTCGGTTAGTGCTAG,8.73 z-score
GACGGACTGGGGTAACGGGACGTGCTA,-0.719 z-score
TGGGTTTTCAGCTGTTTTTCTGTGCTA,1.28 z-score
TCATTTCCCACTTTCACACTGTGCTAG,3.21 z-score
GACGGTATCGGGACTGGGAACGTGCTA,1.36 z-score
GACGATATGGGGACTGGAGACGTGCTA,-0.108 z-score
ATTTTTCTAATTTACTTTGGGTGCTAG,1.04 z-score
TCATTTTTATTTTCTGAACTGTGCTAG,2.17 z-score
GACGGTTTCGGTCTCGGGAGGTGCTAG,9.63 z-score
TCAATTTTTTTTATTTAACTGTGCTAG,1.13 z-score

# Series 3 — method: RNA Bind-n-Seq; form: RNA; medium: in vitro; tested at: not given; baseline: input RNA pool; reading: higher = stronger binding
# Target: RING finger protein unkempt homolog, zinc fingers 1-6, GST-SBP tag (UNK, Homo sapiens, UniProt Q9C0B0, residues 30-357)
# Sequence of UniProt Q9C0B0 (30-357, looked up): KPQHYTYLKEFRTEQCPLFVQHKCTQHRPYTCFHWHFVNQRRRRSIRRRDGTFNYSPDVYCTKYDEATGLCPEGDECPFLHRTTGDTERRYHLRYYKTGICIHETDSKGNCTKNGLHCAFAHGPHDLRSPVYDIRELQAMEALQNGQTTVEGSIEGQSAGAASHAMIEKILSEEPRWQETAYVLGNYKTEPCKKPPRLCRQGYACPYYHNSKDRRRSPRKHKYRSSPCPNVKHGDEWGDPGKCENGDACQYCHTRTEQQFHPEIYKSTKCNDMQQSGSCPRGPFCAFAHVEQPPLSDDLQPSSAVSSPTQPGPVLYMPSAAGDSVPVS
# Setting: RNA with constant flanks, human-mouse chimeric sites, ends assumed
# Shared flanks, not repeated: GGGAGUUCUACAGUCCGACGAUC … CAACAGAGGAUUGAGCAUCA
Strand,bound/input enrichment [ratio]
AUUGUUGAAGCGAAUCCACUCCUAGAAGCAUUUGGAAAUGCGAAGACUGUUCGCAACAAUAAUAGCAGUCGAUUUGGAAAAUUUGUAGAAAUUCAUUUCAAUGAAAAGAGUUCGGUUGUU,0.304
AUGGAGAAGGAUUCUCUGCCCCGCUUUGUGCGCUCUGAGUUUUAUCAGGAGUUAAUCAAGUAGUCAUCUGGUCAGGCUUCCAAAAGUUGCCCUGUGAGUUGAGUUACAUCCUUUGUAGCA,0.191
CUGAAAAACACAGAUAUCAAAGUUGUUGAUUUUGGAAGUGCAACAUAUGAUGAUGAACAUCACAGUACUUUGGUGUCUACCCGGCACUACAGAGCUCCCGAGGUCAUUUUGGCUUUAGGU,0.543
CCCUCCCGGGCCACCCAACCCCUCCCGGCUCCCCGCCGAGAUCCAGGUUUCUUCUUAUUUCAUAGCAAAUAAGAAAAAUGUUCUACGCACAUUUUGUUCUCAGUAAACGAGGGCCUCUGG,0.328
AAAGGCAAAAAGGGCAGUUCAUAAAUAUCAUAAGUAACUCUGGGGGAGGGAAAUUCUGUUCUUUUGUUUAAUUUUCCCCCAAAUGAAGCCAAAGUGUGUGUUGAAGAACUGAGAAAAAAU,0.421
UUCAAAGAAAAGGGCAGCUGUGUCAUUUCAUAAGUAACUCUGGGGGAGGGAAAUUCUGUUCUUUUGUUUAAUUUUCCCCCAAAUGAAGCCAAAGUGUUUUUUAAGGAACUGAGAAAAAAU,0.348
GUGUCCUGCUUUCAACUUAAAUCACUGAGGCAUCUCUACUGUUCUGUGAGCAUCAGGAUUUUAGUGCUUGCCACCACCAUGAGAGUUCAGAAGCAGCCUUUCUGUGGAGGGUGGGAAUGA,0.189

# Further values, each from its own experiment
Molecule,target,test,system,conditions,how to read,measurement,value
"PhoQ, residues 284 288 289 292 302 303 TNASYF","PhoP, residues 12 14 15 18 19 NHFRA (Escherichia coli, UniProt P23836)","Sort-seq, measured: YFP reporter",E. coli,"PhoQ-PhoP variant library, together with: 10 µM Mg2+","baseline: high Mg2+ state, higher = stronger signaling",fold induction,1.2
